# Published values of several laboratories.
# Each numbered part is a random draw from the data of one study; scales do not carry over between parts.

# Sample 1
# Target: Histone acetyltransferase KAT6A, winged helix 1, GST fusion (KAT6A, Homo sapiens, UniProt Q92794, residues 1-85)
# Technique: protein binding microarray
# Molecule type: double-stranded DNA, one strand shown
# Matrix: in vitro
# Tested at: not given
# Notes: 8-mer, flanks averaged, mean of 2 arrays, mostly near background
# Reference: not given
# Direction: higher = stronger binding
# Residues (chain): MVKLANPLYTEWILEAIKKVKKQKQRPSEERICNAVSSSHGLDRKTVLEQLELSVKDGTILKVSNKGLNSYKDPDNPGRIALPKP
Oligonucleotide,E-score
AGAGTAAT,-0.126
CCGGGTCC,0.329
ATGATGTC,-0.0166
GATGCGGC,0.255
AAGTTGCG,-0.00204

# Sample 2
# Target: Phosphate system positive regulatory protein PHO4, full length, GST-tagged (PHO4, Saccharomyces cerevisiae, UniProt P07270, residues 1-312)
# Technique: competition protein-binding microarray
# Molecule type: double-stranded DNA, one strand shown
# Matrix: in vitro
# Tested at: 2 µM
# Notes: whole 60-bp probe, lowest competitor level
# Added: Cbf1 competitor, 0.05 µM
# Direction: higher = stronger binding
# Constant ends, left off below: … GTCTTGATTCGCTTGACGCTGCTG
# Residues (chain): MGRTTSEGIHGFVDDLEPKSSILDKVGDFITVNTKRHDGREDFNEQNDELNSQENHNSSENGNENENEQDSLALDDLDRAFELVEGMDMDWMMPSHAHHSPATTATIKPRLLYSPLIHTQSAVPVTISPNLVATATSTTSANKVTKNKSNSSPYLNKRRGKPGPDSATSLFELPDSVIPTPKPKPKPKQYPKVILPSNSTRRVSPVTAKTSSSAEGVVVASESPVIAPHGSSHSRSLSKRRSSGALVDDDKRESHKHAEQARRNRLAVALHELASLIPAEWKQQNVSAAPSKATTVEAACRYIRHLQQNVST
Oligonucleotide,fluorescence intensity [a.u.]
ACTTCTCCTCTGATCTTCGTGATGGGAGTTTTGAGT,5450
TATCACTCTTGATCGCATGTGCCGTTTCCGAGAACG,11600
TTCAACGCCCTGGCTGATGTGACGCTGTTGGTGGAG,4430
CTATTTTTCCTCTGGCGCGTGAATAGCCCGCAGAGA,6530
TGCGCAACAACTTGGTGGGTGGGTGTATGTCTAGAA,5200

# Further values, each from its own experiment
# PABPC1L2 full length, GST fusion: PABPC1L2, full length, GST fusion (mouse, UniProt A0ABA7IW68)
Molecule,target,test,test system,conditions,scale,endpoint,result
AAGUCUU,"PABPC1L2 full length, GST fusion",RNAcompete,"RNA, in vitro","20 nM, 7-mer, probes averaged, single round","reference: mean of 7-mers, higher = stronger binding",7-mer Z-score,-0.293
"PhoQ, residues 284 288 289 292 302 303 GANMMA","PhoP, residues 12 14 15 18 19 VHSCL (Escherichia coli, UniProt P23836)","Sort-seq, refers to: YFP reporter",E. coli,"PhoQ-PhoP variant library, added: 10 µM Mg2+","reference: high Mg2+ state, higher = stronger signaling",fold induction,1.75
GGAGACU,"PABPC1L2 full length, GST fusion",RNAcompete,"RNA, in vitro","20 nM, 7-mer, probes averaged, single round","reference: mean of 7-mers, higher = stronger binding",7-mer Z-score,0.0388
GAGUGCG,"PABPC1L2 full length, GST fusion",RNAcompete,"RNA, in vitro","20 nM, 7-mer, probes averaged, single round","reference: mean of 7-mers, higher = stronger binding",7-mer Z-score,-0.166

# Repeated from above (sample 1):
Oligonucleotide,E-score
AAGTTGCG,-0.00204
